Assay results of several laboratories.
Protocols differ between the studies behind these lines. ± marks the error that the study gave.

For `deucravacitinib`, “accumulation index (AUC)” read 1.6 (human; 2 mg twice daily, day 12, multiple ascending dose; relative to: day 1 AUC).
The Vz/F of `chicoric acid` is reported as 251 ± 75.2 L/kg (UPLC; broiler chicken, plasma; oral gavage, 20 mg/kg).
`semaglutide`: “participants with adverse events” 5.2% (refers to: recovering or resolving; human, safety analysis set; concentration not given, 32 weeks, run-in).
For `maraviroc`, the C12 was 45.3 ng/mL (black CYP3A5 extensive metabolizers, plasma; 300 mg twice daily).

For quick reference, copied from above:
For `maraviroc`, the C12 was 45.3 ng/mL (black CYP3A5 extensive metabolizers, plasma; 300 mg twice daily).
